Assay results from different studies.
Parts stem from different laboratories: compare values within a part only. Positions count from the first letter of the parent shown.

Study 1
Target: Hepatocyte nuclear factor 3-beta, forkhead domain (FOXA2, Homo sapiens, UniProt Q9Y261, residues 142-269)
Technique: protein-binding microarray
Molecule type: double-stranded DNA, one strand shown
Medium: in vitro
Tested at: not given
Setting: k-mer, scored over probes, only values ≥0.25
Direction: higher = stronger binding
Residues (chain): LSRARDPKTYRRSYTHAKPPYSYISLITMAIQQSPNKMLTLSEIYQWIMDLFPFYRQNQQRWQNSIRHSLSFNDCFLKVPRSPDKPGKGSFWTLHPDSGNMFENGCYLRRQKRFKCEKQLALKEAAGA
`GTTAGATA` gave an E-score of 0.318.
`AGATAATG` has an E-score of 0.284.
With `TAATATGA` the E-score was 0.372.
With `ACCAAACA` the E-score was 0.37.
With `ATGGTAAC` the E-score was 0.258.
For `ATATAGTA`, the E-score was 0.345.
For `ATGATATA`, the E-score was 0.375.
`ATATACAC` has an E-score of 0.416.
For `TAACAACA`, the E-score was 0.319.
`ATTAACAA` has an E-score of 0.305.
For `TACTTCAA`, the E-score was 0.269.
The E-score of `ACAGTATC` is reported as 0.256.
For `AAAACAAT`, the E-score was 0.271.

Study 2
Target: BIRC6 UBC core domain (UniProt Q9NR09)
Technique: yeast two-hybrid
Medium: yeast
Setting: mostly zero background
Baseline: not given
Direction: higher = stronger interaction
B1: ZNRF4 RING domain (UniProt Q8WWF5); chain VRTFTWHNDLCAICLDEYEEGDQLKILPCSHTYHCKCIDPWFSQAPRRSCPVCKQSVAATEDSF
B2: BFAR RING domain (UniProt Q9NZS9); chain GPQISVSEFSCHCCYDILVNPTTLNCGHSFCRHCLALWWASSKKTECPECREKWEGFPKVS
B3: RNF186 RING domain (UniProt Q9NXI6); chain HSGSTECDLECLVCREPYSCPRLPKLLACQHAFCAICLKLLLCVQDNTWSITCPLCRKVTAVPGGLI
B4: TRIM41 RING domain (UniProt Q8WV44); chain PVQTLQEEAVCAICLDYFTDPVSIGCGHNFCRVCVTQLWGGEDEEDRDELDREEEEEDGEEE
B5: CNOT4 RING domain (UniProt O95628); chain MSRSPDAKEDPVECPLCMEPLEIDDINFFPCTCGYQICRFCWHRIRTDENGLCPACRKPYPED
B6: HLTF RING domain (UniProt Q14527); chain LILSSGSDEECAICLDSLTVPVITHCAHVFCKPCICQVIQNEQPHAKCPLCRNDIHEDNLLE
B7: MKRN3 RING domain (UniProt Q13064); chain FAVQRGMDKVCGICMEVVYEKANPNDRRFGILSNCNHSFCIRCIRRWRSARQFENRIVKSCPQCRVTSELVIPSE
Residues (chain): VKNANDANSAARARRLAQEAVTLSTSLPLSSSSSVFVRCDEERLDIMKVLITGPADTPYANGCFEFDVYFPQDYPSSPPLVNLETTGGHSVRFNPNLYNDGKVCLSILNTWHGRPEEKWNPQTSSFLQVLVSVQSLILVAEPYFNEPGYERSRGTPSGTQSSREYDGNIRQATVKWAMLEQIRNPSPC
`LEALSSDFLACKICLEQLRAPKTLPCLHTYCQDCLAQLADGGRVRCPECRETVPVPPEGV (TRIM56 RING domain (UniProt Q9BRZ2))` — result for “lacZ reporter activity”: 0.
Under “lacZ reporter activity”, `B1 (ZNRF4 RING domain)` is recorded as 0.
`FAEQPSVKLCCQLCCSVFKDPVITTCGHTFCRRCALKSEKCPVDNVKLTVVVNNI (TRAF7 RING domain (UniProt Q6Q0C0))`: “lacZ reporter activity” 0.
Under “lacZ reporter activity”, `B2 (BFAR RING domain)` is recorded as 0.
`B3 (RNF186 RING domain)`: “lacZ reporter activity” 0.
Under “lacZ reporter activity”, `FDPPLESKYECPICLMALREAVQTPCGHRFCKACIIKSIRDAGHKCPVDNEILLENQLFP (TRAF6 RING domain (UniProt Q9Y4K3))` is recorded as 0.
Under “lacZ reporter activity”, `B4 (TRIM41 RING domain)` is recorded as 0.
`B5 (CNOT4 RING domain)`: “lacZ reporter activity” 0.
For `EIKEYKARLTCPCCNTRKKDAVLTKCFHVFCFECVRGRYEARQRKCPKCNAAFGAHDFHR (RNF40 RING domain (UniProt O75150))`, “lacZ reporter activity” read 0.
`LVKDFNPYITCYICKGYLIKPTTVTECLHTFCKTCIVQHFEDSNDCPRCGNQVHETNPLE (PCGF5 RING domain (UniProt Q86SE9))`: “lacZ reporter activity” 0.
For `B6 (HLTF RING domain)`, “lacZ reporter activity” read 0.
`B7 (MKRN3 RING domain)` — result for “lacZ reporter activity”: 0.

Study 3
Target: RING finger protein unkempt homolog, zinc fingers 1-6, GST-SBP tag (UNK, Homo sapiens, UniProt Q9C0B0, residues 30-357)
Sequence of UniProt Q9C0B0 (30-357, looked up): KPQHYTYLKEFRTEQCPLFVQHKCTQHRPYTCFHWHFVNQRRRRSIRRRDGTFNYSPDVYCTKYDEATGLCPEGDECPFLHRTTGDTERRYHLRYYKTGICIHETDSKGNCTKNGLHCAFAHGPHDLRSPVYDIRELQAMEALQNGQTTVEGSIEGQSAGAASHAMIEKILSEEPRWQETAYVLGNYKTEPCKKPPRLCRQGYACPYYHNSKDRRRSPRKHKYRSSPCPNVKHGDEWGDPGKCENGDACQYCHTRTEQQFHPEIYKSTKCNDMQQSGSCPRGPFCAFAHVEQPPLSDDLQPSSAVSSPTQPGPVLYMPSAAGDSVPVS
Technique: RNA Bind-n-Seq
Molecule type: RNA
Medium: in vitro
Tested at: not given
Setting: RNA with constant flanks, human-mouse chimeric sites, ends assumed
Baseline: input RNA pool
Direction: higher = stronger binding
With `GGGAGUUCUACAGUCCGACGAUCCGGAAGUUCUUGAUUUAUCAUUUUUCUCUUUUCUUUCUUUCCUUUAGGAAAAGCCUAAAGAUUAGGUUGUAAGAAAAACAGAAGCCAUGUUUCGAAGGAAGACCUGUCAGGUAUUUCGUCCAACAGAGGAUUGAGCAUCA` the bound/input enrichment was 0.135 ratio.
For `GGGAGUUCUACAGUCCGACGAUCGAUGAUAAUCACACAAACAAGUCACUGUUACAUGACCAGAGUUGUACUUCUUCUCCUGAUUAAUAUUCUCCCUGGAACCACUGGUCAAGGGGAAUCAAGACGACAAGAACCCGGGGACUUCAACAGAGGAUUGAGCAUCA`, the bound/input enrichment was 0.193 ratio.
`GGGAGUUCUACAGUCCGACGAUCACCAUUUUCGCGGUUCAGGCUUUGUGUGUAGUUCACUUACGGUAUUAAAUUAUUAUUCUGCUUAGCUUAUAAUAAGGAUAAUUGCAUUUAAAGAGGUGAUCACUGAAUACUCUGAAACUUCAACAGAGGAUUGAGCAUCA` has a bound/input enrichment of 0.909 ratio.
`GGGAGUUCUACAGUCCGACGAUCAAAGAGAAACUAAAGCAACUAAUAGAGAAGAGGAUUGGCAAAGAGAAUUUCAUAGAGAAACUAGGAUUUAUUAGCAAAACAUGAGUUUAUUCCAGAGCGUCUCAGAAAACCCCAGCCAACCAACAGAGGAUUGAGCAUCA` has a bound/input enrichment of 12.2 ratio.
The bound/input enrichment of `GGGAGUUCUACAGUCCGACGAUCAGAGAUAAAGCAUCUAGAAAUAUGAGAGGCUCCCGGAUGAAUGGGUUGCCUAGCCCCACUCACAGCGCCCACUGUAGCUUCUACCGAACCAGAACCUUGCAGGCACUGAGUAAUGAGAAGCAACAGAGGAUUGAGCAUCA` is reported as 0.705 ratio.
`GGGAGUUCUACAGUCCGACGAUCACCAUUUUCGCGGUUCAGGCUUUGUGUGUAGUUCACUCUAUGUAUUAAAUUAUUAUUCUGCUUAGCUUAAAGUAAGGAUAAUUGCAUUUAAAGAGGUUACUGAAUGUUACUCUGAAACUUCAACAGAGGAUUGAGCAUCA` gave a bound/input enrichment of 0.224 ratio.
The bound/input enrichment of `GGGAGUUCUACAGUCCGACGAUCCAGUCCCCGUGUCCCAGGGGACAAUGUUGUGAACAAAAACUCAAAGCGGCCCUUUCUUUGUAGUUCUUGAUUCUCGAAAUGUGCUAUUAUUGUUUGUCUUUUUUUUUUUUUUUUUAAAGACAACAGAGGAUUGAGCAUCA` is reported as 1.78 ratio.

Study 4
Target: CCNA1, cyclin fold, Cln2 fusion (human)
Technique: yeast growth competition, sequencing
Medium: yeast
Setting: weak parent motif
Baseline: not given
Direction: higher = stronger binding
Starting sequence: RB1 docking peptide (human); PKPLKKLRFDIEG
`PKPLKKLRFDVEG [I11V]` — result for “normalised enrichment score”: 0.217.
Under “normalised enrichment score”, `PPPLKKLRFDIEG [K2P]` is recorded as 0.0241.
Under “normalised enrichment score”, `PKPLKKLRFDIED [G13D]` is recorded as 0.644.
Under “normalised enrichment score”, `PKFLKKLRFDIEG [P3F]` is recorded as 0.048.
`PKPLKKWRFDIEG [L7W]` — result for “normalised enrichment score”: 0.45.
`PKPLKWLRFDIEG [K6W]` — result for “normalised enrichment score”: 0.233.
`VKPLKKLRFDIEG [P1V]` — result for “normalised enrichment score”: 0.426.
`PKPLKKLRFDIET [G13T]`: “normalised enrichment score” -0.136.
`PKPLKKLRFDISG [E12S]` — result for “normalised enrichment score”: 0.109.
For `PKPLKKLRVDIEG [F9V]`, “normalised enrichment score” read 0.0766.
Under “normalised enrichment score”, `PKPLKKLRFDIYG [E12Y]` is recorded as 0.562.
